Published values collected from several papers.
Every numbered part comes from another study and shows a few of its results, in no order. Positions count from the first letter of the parent shown.

Set 1
Target: CCNB3, cyclin fold, Cln2 fusion (human)
Method: yeast growth competition, sequencing
Sample: yeast
Notes: weak parent motif
Baseline: not given
Reading: higher = stronger binding
Parent: WEE1 docking peptide (human); HKTFRKLRLFDTP
`HKTFRKLRLFQTP [D11Q]`: “normalised enrichment score” 1.31.
`HKTFKKLRFFDTP [R5K L9F]`: “normalised enrichment score” -0.441.
`HKTFRKLRLFDAP [T12A]`: “normalised enrichment score” 0.0659.
`HKTFFKLRLFDTP [R5F]`: “normalised enrichment score” -0.0699.
Under “normalised enrichment score”, `HKTFRKLRLFDMP [T12M]` is recorded as 0.586.
`HKTFRKCRLFDTP [L7C]` — result for “normalised enrichment score”: 0.887.
`HKHFRKLRLFDTP [T3H]`: “normalised enrichment score” 0.691.
`HKTFRALRLFDTP [K6A]`: “normalised enrichment score” 0.382.
For `HKTFRKLRLFYTP [D11Y]`, “normalised enrichment score” read -0.355.
For `HKTFRKLRLFDPP [T12P]`, “normalised enrichment score” read -0.297.
`HKTFRKLRVFDTP [L9V]`: “normalised enrichment score” -0.0656.
Under “normalised enrichment score”, `HKLFRKLRLFDTP [T3L]` is recorded as -0.00806.
Under “normalised enrichment score”, `HKTFIKLRLFDTP [R5I]` is recorded as 0.119.
For `PKTFRKLRLFDTP [H1P]`, “normalised enrichment score” read 0.0775.
`HKTFRKLRLSDTP [F10S]`: “normalised enrichment score” -0.0491.
`HKTDRKLRLFDTP [F4D]` — result for “normalised enrichment score”: 0.0989.
Under “normalised enrichment score”, `HKTFRKLRLFDTC [P13C]` is recorded as 0.376.
Under “normalised enrichment score”, `HKTFRKLRGFDTP [L9G]` is recorded as 0.483.
`HKTFGKLRLFDTP [R5G]`: “normalised enrichment score” -0.248.

Set 2
Target: Histone acetyltransferase KAT6A, both winged helices, GST fusion (KAT6A, Homo sapiens, UniProt Q92794, residues 1-181)
Method: protein binding microarray
Molecule type: double-stranded DNA, one strand shown
Sample: in vitro
Tested at: not given
Notes: 8-mer, flanks averaged, mean of 2 arrays, mostly near background
Baseline: not given
Reading: higher = stronger binding
Target sequence (chain): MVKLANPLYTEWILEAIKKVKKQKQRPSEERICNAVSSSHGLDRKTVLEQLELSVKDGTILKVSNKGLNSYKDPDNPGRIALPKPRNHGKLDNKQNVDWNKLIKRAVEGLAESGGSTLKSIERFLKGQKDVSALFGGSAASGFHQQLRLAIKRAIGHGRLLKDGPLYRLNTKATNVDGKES
With `CCCCGATC` the E-score was -0.00235.
With `CACTCGGA` the E-score was 0.0298.
The E-score of `CTACAGCA` is reported as -0.0793.
The E-score of `ATCATAAT` is reported as -0.0839.
`AAAACAAT` has an E-score of 0.0386.
With `CGCATAGC` the E-score was 0.25.
With `GATTGCGA` the E-score was 0.201.
The E-score of `AATGCAAA` is reported as -0.117.
`ACCTGGTG` gave an E-score of -0.152.
The E-score of `GATGACAA` is reported as -0.0657.
With `GGTTGTGA` the E-score was -0.0492.
`CCTTACAC` gave an E-score of -0.0648.
The E-score of `CGGGCATA` is reported as 0.122.
For `GAACTTTA`, the E-score was 0.00225.
`GATAGGTA` has an E-score of -0.0646.
`ACATTTCC` gave an E-score of 0.0238.
With `ATCGGCGG` the E-score was 0.242.
The E-score of `TACAACAA` is reported as -0.122.
The E-score of `AATCGTCA` is reported as -0.12.
For `AATACAAA`, the E-score was -0.114.
The E-score of `GGATTAAC` is reported as 0.11.

Set 3
Target: Sal-like protein 4, full length isoform B (SALL4, Homo sapiens, UniProt Q9UJQ4-2, residues 1-616)
Method: universal PBM
Molecule type: double-stranded DNA, one strand shown
Sample: in vitro
Tested at: not given
Notes: 8-mer, flanks averaged, mean of replicates
Reading: higher = stronger binding
Target sequence (chain): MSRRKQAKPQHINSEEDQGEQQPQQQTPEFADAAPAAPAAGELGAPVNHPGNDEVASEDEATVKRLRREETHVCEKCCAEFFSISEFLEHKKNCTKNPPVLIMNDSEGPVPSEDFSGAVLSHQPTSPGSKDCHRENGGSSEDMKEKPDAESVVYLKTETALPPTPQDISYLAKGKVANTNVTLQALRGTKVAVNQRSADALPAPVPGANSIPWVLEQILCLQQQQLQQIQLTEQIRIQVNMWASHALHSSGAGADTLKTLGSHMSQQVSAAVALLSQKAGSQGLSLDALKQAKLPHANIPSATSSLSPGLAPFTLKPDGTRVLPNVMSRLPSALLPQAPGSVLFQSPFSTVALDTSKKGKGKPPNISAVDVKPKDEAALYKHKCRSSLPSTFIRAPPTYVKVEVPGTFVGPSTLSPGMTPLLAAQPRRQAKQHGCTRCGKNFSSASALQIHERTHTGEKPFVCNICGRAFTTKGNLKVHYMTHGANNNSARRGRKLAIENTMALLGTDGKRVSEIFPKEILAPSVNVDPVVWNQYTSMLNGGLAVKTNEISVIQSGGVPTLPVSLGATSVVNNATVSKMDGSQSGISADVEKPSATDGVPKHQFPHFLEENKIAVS
`AGAGTACC` gave an E-score of -0.0448.
The E-score of `ATTAGGTA` is reported as 0.223.
`ACTTTGAG` gave an E-score of 0.0554.
`AAGACCAT` gave an E-score of 0.108.
For `TAACTCAA`, the E-score was 0.239.
For `GCAGTCTA`, the E-score was 0.0567.
For `GCCGTTCA`, the E-score was -0.215.
For `ATTAAAAT`, the E-score was 0.391.
With `AGTAGACG` the E-score was 0.0736.
`GAAAATAC` gave an E-score of 0.0833.
For `CGCTACCG`, the E-score was -0.214.
`ATCGGAGC` has an E-score of -0.254.
`ATGGTTGC` has an E-score of -0.127.
`CTGTAGTC` gave an E-score of -0.0909.
For `GCTCTTAA`, the E-score was 0.0429.
With `GGAAGTAA` the E-score was 0.1.
For `ATTCTGTC`, the E-score was -0.0542.
`CGATTCTC` gave an E-score of 0.101.
For `ACATGATA`, the E-score was 0.298.
With `AGGCATAC` the E-score was 0.0624.
With `CTGGTGAA` the E-score was -0.104.
`CACGTACG` has an E-score of -0.0233.
For `ACATGCAT`, the E-score was 0.141.
The E-score of `AGTAGCAA` is reported as 0.076.
`AGACGAAG` gave an E-score of -0.0642.

Set 4
Target: Fragile X messenger ribonucleoprotein 1, C-terminal low-complexity region (Fmr1, Mus musculus, UniProt P35922)
Method: RNA Bind-n-Seq
Molecule type: RNA
Sample: in vitro
Tested at: 200 nM
Notes: whole 134-nt RNA, ends assumed
Added: 150 mM LiCl
Baseline: input library
Reading: higher = stronger binding
Each molecule: 7-deaza-guanosine replaces G
All sequences stand within: GGGAGUUCUACAGUCCGACGAUC … UGGAAUUCUCGGGUGUCAAGG
For `UUUUAUUCUUCCAUCUUUUCCCACAGGUGGCAGCUGCCAACAAGAAGCAUUAGAACAAACCAUGCUGGGUUAAUAAAUUGCCUCAUUCGU`, the log2 enrichment was 1.49.
`CUGUGCUACACAUCGUAUGUACCGAAUCGUGUGUGUGUGUGUGUGUGUGUGUGUGUGUGUGUAAAGUAUUAUGUUACGCCGUUCGGAUCU` has a log2 enrichment of -0.156.
For `UUAGGAAGAGAAGACAAGGUGGCCUCUCAUUAGAAGAAGAGGAAGAGGAGGAUGCCAAUUCAGAAUCUGAGGGAAGCAGUAGUGAGGAGG`, the log2 enrichment was -1.48.
`UCAAGUCCUGUGCUACACAUCGUAUGUACCGAAUCGGGGAAAGGAAAGGGAAAGGAAAGUAUUAUGUUACGCCGUUCGGAUCUGCACUUC` gave a log2 enrichment of -0.733.
`UCCUGUGCUACACAUCGUAUGUACCGAAUCGGGGCCCCCCGGGCCCCCCGGCCCCCCGGAAAGUAUUAUGUUACGCCGUUCGGAUCUGCA` gave a log2 enrichment of 0.523.
With `UCAAGUCCUGUGCUACACAUCGUAUGUACCGAAUCGGUUUGGGGUUUGGUUUGGGAAAGUAUUAUGUUACGCCGUUCGGAUCUGCACUUC` the log2 enrichment was -1.99.
`ACCAUGCAGGUGGGCAUCUUUGGGAAGUGCGGCAAGGGGGGGAUAGGGAGGGGGGUAACACUUUGGGAACAGGUGGUCCCAGGUCGUUUC` has a log2 enrichment of 1.06.
`GUCCUGUGCUACACAUCGUAUGUACCGAAUCGGGUGGGUUUUUUUGGGAAAAAAAGGGAAAGUAUUAUGUUACGCCGUUCGGAUCUGCAC` gave a log2 enrichment of -0.969.
With `UCAAGUCCUGUGCUACACAUCGUAUGUACCGAAUCGGUUUGGAAAAAGGAAAGGAAAGUAUUAUGUUACGCCGUUCGGAUCUGCACUUCC` the log2 enrichment was -1.06.
The log2 enrichment of `AAGUCCUGUGCUACACAUCGUAUGUACCGAAUCGGAAAAGGGGAAAAGGAAAAGGGGAAAGUAUUAUGUUACGCCGUUCGGAUCUGCACU` is reported as 0.341.
For `ACCAUGCAGGUGGGCAUCUUUGGGAAGUGGGGCAAGCGGGGGAUAGGGAGGGGGGUAACACUUUGGGAACAGGUGGUCCCAGGUCGUUUC`, the log2 enrichment was 1.09.

Set 5
Target: RING finger protein unkempt homolog, zinc fingers 1-6, GST-SBP tag (UNK, Homo sapiens, UniProt Q9C0B0, residues 30-357)
Method: RNA Bind-n-Seq
Molecule type: RNA
Sample: in vitro
Tested at: not given
Notes: RNA with constant flanks, human and mouse sites, ends assumed
Baseline: input RNA pool
Reading: higher = stronger binding
All sequences stand within: GGGAGUUCUACAGUCCGACGAUC … CAACAGAGGAUUGAGCAUCA
Construct (chain): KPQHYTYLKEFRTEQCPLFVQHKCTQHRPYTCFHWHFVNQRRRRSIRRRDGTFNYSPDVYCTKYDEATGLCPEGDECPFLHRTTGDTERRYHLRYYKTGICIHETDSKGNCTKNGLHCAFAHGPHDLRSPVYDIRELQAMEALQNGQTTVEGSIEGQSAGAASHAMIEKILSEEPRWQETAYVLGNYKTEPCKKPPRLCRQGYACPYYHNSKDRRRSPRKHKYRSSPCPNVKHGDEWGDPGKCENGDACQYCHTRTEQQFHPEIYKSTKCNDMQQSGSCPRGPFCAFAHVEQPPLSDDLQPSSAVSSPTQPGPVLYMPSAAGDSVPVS
`CUCGCCUCCGUCCUGCUCUCCCUGCUCCUCAUUCUCAAGGCGGGAAGGAGGUGGAACAAAUAUUUCAAAUCACGGAGACCUCUCUUUACAGGAGGCCUCAUCGGGGGCCUCUUCACCUAC` gave a bound/input enrichment of 0.289 ratio.
`GCUCCUAUUAAUGAAGUAGCACGAUUUAAUCUGAUGCAGGUAGGCCGCCUUUUGCAGCAGUUAGCAAUGACUGGCUCUGAAGAGGGAGAUCCCCGAACAAAGAGCAGCCUUGGAAAGUUU` has a bound/input enrichment of 0.313 ratio.
`AUCUAUACAACCAUCAACGCUCACCAGUGGUCUGAGACGGUCCAGCCAAUUAUGGAAGCACUUAGAGAUGCAACAAGGAGACGCGCCUUUGCCCUGGUCUCUCAAGCGUAUACUUCAAUC` has a bound/input enrichment of 0.291 ratio.
`GGUCGUGGUGUUUUAAAAGCAUAAGUUACCUGUUUGCACUGUUUUAAGAUAGGAAAAAAAAAUAGUGGGCAAGGUGAACAUCAGACGUAAAUUUGUGUGUUUUUAUUUUGUCAUGCUCUU` gave a bound/input enrichment of 0.431 ratio.
`AAUUCUUUCGCAGCCAUUGAACUUCUAUAGGGAAGGGUUUGUGGACCAGAACUUUGACCUUGUGAAUGCAUGAUGUUAGGGAUGUGGAUAGAAUAAGCAUAUUGCUGCUGUGGGCUGACA` has a bound/input enrichment of 3.29 ratio.
With `GACAUUCUAAUUGGUACAGACUGAAACCUUUAUAGGAGUUAUGCAGUUCAGAAGUGGACUUUAGGUAAGUCAUUUAUUUUAAGCUGUUGAUAUAGAGAUUUAUUUUCUGUAAAUUUUGAC` the bound/input enrichment was 3.76 ratio.
For `UGAAGCUGAGUGGCCGAGAGAUUGAUGUUCGAAUUGAUAGAAAUGCUUAAGCAGUUGCCUUUUUUAAACAUCAAUACCAGACCUCUGAAUUUGUAUUUUUUCUUGUUAACCAUUUUAAUU`, the bound/input enrichment was 0.511 ratio.
The bound/input enrichment of `AUUCUCUAUGACAAGGAUCACUACAAGUUGGCUCUAGGUCAAAUAAAUAUUGCCAAAAACUUGGUGGACAAUGUUGCUAAAGAUUAUGUGCGUCUUAUGAAAUAUGGUGAUUCUCUGUAC` is reported as 0.237 ratio.
The bound/input enrichment of `AAAUUUGACUCAAAUGUGAGUGGUCAGUCCUCUUUCGGGACAUCUCCAGCAGCAGACAACAUAGAAAAGGAGGCGCUUCCUCGUUAUGAGCCAAUUCCAUUUAGUGCUUCUAUGAACGAG` is reported as 0.737 ratio.
For `CCAAAAGCAGUAGUUUCUCCUCCUAAGUUUGUAUUUGGCUCAGAAUCUGUUAAAAGCAUUUUUAGUAGUGAAAAAUCCAAGCCAUUUGCAUUUGGCAACAGUUCAGCCACUGGUUCUUUG`, the bound/input enrichment was 0.18 ratio.
With `UAGAUCUGAUCGAGUUAAGAGUGUGGAUCUGCAUCCUACAGAGCCAUGGAUGUUGGCAAGUCUUUACAAUGGCAGUGUGUGUGUUUGGAAUCAUGAAACACAGACACUGGUGAAGACAUU` the bound/input enrichment was 0.0568 ratio.

For quick reference, copied from above (set 3):
`GAAAATAC` gave an E-score of 0.0833.
For `CGCTACCG`, the E-score was -0.214.
`ATCGGAGC` has an E-score of -0.254.
`ATGGTTGC` has an E-score of -0.127.
`CTGTAGTC` gave an E-score of -0.0909.
